Published values collected from several papers.
Numbered parts are unrelated; each lists some results of a single study. Positions count from the first letter of the parent shown.

Block 1 — target: CCNA2, cyclin fold, Cln2 fusion (human); method: yeast growth competition, sequencing; matrix: yeast; notes: strong parent motif; relative to: not given; direction: higher = stronger binding; measurement: normalised enrichment score
Starting sequence: INSM1 docking peptide (human); PKAIRKLHFEDEV; partner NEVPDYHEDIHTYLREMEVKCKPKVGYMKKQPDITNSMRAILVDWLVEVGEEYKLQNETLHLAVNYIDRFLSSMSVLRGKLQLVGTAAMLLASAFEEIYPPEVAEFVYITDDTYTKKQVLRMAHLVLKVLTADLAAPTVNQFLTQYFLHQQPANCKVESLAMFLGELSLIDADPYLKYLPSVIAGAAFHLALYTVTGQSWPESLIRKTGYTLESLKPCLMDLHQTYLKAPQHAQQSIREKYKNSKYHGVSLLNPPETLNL
Variant = PKAIRFLHFEDEV [K6F]; value = 1.75
Variant = PKAIRKLHFQDEV [E10Q]; value = 4.88
Variant = PKAIRKLHFEPEV [D11P]; value = 4.55
Variant = PKLIRKLHFEDEV [A3L]; value = 2.27
Variant = PKAIRKLHFEDFV [E12F]; value = 5.07
Variant = PKAIRKLKFEDEV [H8K]; value = 5.27
Variant = PKAIRKLHFEREV [D11R]; value = 4.34
Variant = PKAIRKGHFEDEV [L7G]; value = -0.335

Block 2 — method: RNA Bind-n-Seq; form: RNA; matrix: in vitro; concentration: 200 nM; notes: whole 134-nt RNA, ends assumed; with: 150 mM LiCl; relative to: input library; direction: higher = stronger binding; measurement: log2 enrichment; all molecules: 7-deaza-guanosine replaces G
Target: Fragile X messenger ribonucleoprotein 1, C-terminal low-complexity region (Fmr1, Mus musculus, UniProt P35922)
Oligonucleotide = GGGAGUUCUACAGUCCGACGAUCUCCUGUGCUACACAUCGUAUGUACCGAAUCGGGAAAAAGGGAAAAAAAGGGUUUUUGGGAAAGUAUUAUGUUACGCCGUUCGGAUCUGCAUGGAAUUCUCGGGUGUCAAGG; value = -1.44
Oligonucleotide = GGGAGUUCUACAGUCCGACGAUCGCAGGAAGUAAUAACAAAUGGAAAUGCUUCGGAUAGUGGCAGGGGUGGGGGUUGCUAAGGAAAGGGUGGGAUGGGAGUGGGUAAAGAGUUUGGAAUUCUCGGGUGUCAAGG; value = 1.55
Oligonucleotide = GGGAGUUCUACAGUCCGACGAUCGUCCUGUGCUACACAUCGUAUGUACCGAAUCGGGAAAAAAAGGGAAAAAGGGUUUGGGAAAGUAUUAUGUUACGCCGUUCGGAUCUGCACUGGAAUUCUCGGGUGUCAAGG; value = -2.27
Oligonucleotide = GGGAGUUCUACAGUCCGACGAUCAGUCCUGUGCUACACAUCGUAUGUACCGAAUCGGGGUUUUGGGUUUUGGGUUUUGGGGAAAGUAUUAUGUUACGCCGUUCGGAUCUGCACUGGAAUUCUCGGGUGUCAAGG; value = -0.642
Oligonucleotide = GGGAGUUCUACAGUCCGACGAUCCUGUGCUACACAUCGUAUGUACCGAAUCGGGGUUUUUUUGGGGAAAGGGGAAAAAAAGGGGAAAGUAUUAUGUUACGCCGUUCGGAUCUGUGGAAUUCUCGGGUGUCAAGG; value = -0.854
Oligonucleotide = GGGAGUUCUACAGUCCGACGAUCAAGUCCUGUGCUACACAUCGUAUGUACCGAAUCAAAUUUUUAAAUUUAAAUUUAAAAAAGUAUUAUGUUACGCCGUUCGGAUCUGCACUUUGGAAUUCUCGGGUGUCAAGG; value = -3.39
Oligonucleotide = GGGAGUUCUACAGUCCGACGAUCCAAGUCCUGUGCUACACAUCGUAUGUACCGAAUCGGGGCCCGGGCCCGGCCCGGGGAAAGUAUUAUGUUACGCCGUUCGGAUCUGCACUUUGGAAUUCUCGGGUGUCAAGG; value = -1.59
Oligonucleotide = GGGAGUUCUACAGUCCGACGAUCUGGGAGGUGGAUUUUGUUUAUUUGUUUAGCUCAUUUCCAGGGGUGGGAAUUUUUUUUUAAUAUGUGUCAUGAAUAAAGUUGUUUUUGAAAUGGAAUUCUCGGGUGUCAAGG; value = 0.0159

Block 3 — method: RNA Bind-n-Seq; form: RNA; matrix: in vitro; concentration: 365 nM; relative to: no-protein control; direction: higher = stronger binding; measurement: RBNS enrichment (R)
Target: RNA binding protein fox-1 homolog 2, RRM domain, GST-SBP tag (RBFOX2, Homo sapiens, UniProt O43251-10, residues 100-194)
Notes: natural RNA segment, single round, ends assumed
Oligonucleotide = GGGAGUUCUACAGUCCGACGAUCUUAUCCACUGCCUUAAAAUUAUACCUAUUUCAUGUUUAAAAAGAUAUCAAUCAGAAUUGGAGUUUUUAACAGUGGUCAUUAUCAAAGCUGUGUUAUUUUCCACAGAAUAUUGGAAUUCUCGGGUGCCAA; value = 0.384
Oligonucleotide = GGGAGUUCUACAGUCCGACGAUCGUGUGGUUCAUGCAUUGUCUUUGAUAUCCUAGACGGAGCUCAGCUUAGAACUUUCCAAGCGCCAGUGCACAGCGUUCUAGGGAAUGGUGCUCCUUGGCUGGGUGAGCUGCUGGAAUUCUCGGGUGCCAA; value = 0.568
Oligonucleotide = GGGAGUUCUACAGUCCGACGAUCUAUUUAUGAACCCAUGGGAGACUUUAAACUCUUGUAGAUAGAUGCUAAAUGCCCAGGCCCACUUAACUUAUUAAUGUGUGAAUUACAUUUAUGUUUUUAGUUUAUAUGCAUGGAAUUCUCGGGUGCCAA; value = 3
Oligonucleotide = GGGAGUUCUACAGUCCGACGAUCCUCACAAAAAAAAUCCUGCUUGUAUUCAGUUUCAAACUUUAUUAGUCUCACUUUUAAUUAUAAAACCAGAAAGCUGCAAUUUCUUUUCCCUCUACCCCUUAUUUGUUGGCUGGAAUUCUCGGGUGCCAA; value = 0.804
Oligonucleotide = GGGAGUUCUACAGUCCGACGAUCUUUUUUUAAUGAACUGUCACUUUUAACCCCCUCCUCUGCUGGCCGGGGGAUGGAAAGGAAGAUAAAUGUUAUUUGUUCACUUUUGUAAGACUCUGUUCUGGGUGUGGGCCUGGAAUUCUCGGGUGCCAA; value = 0.571
Oligonucleotide = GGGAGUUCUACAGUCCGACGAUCGGUUAAAUGAGAUAGCAUUUUUAUAUCAGAGACACCAGAAUGUUGGUGGUCAACUACCUGUGCAAUAUUUAUGUCUUGAAAACCAGAUCUGAGUAUGCAUUGAACAGUGGUGGAAUUCUCGGGUGCCAA; value = 1.02
Oligonucleotide = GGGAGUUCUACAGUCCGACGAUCUUCCUCCCGCACCCCUCCUCCCCCUGCUUCCUGUGGGAUCAGAGUAAGGCUCCUGUUGGCCAGUAGCUUGUGAUCUGGGACCUCUGGGGCCUCGUGUCUGCCUCACUCCCUGGAAUUCUCGGGUGCCAA; value = 1.42
Oligonucleotide = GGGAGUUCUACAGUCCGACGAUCUUGUGUCUUCAUUUUAAUGUGUUUGCAAUCGCUCCGCUCCAGGAAGAACGGAAAUGCUGUCUUGUGAGCAUGAAGUGAACGGGCUGUUUUGCUCCAGCCACUUUUCUUGUUGGAAUUCUCGGGUGCCAA; value = 0.513

Single results of other studies
Substance = PhoQ, residues 284 288 289 292 302 303 SLANKL; target = PhoP, residues 12 14 15 18 19 VHTVL (Escherichia coli, UniProt P23836); assay = Sort-seq, refers to: YFP reporter; test system = E. coli; conditions = PhoQ-PhoP variant library, with: 10 µM Mg2+; scale = relative to: high Mg2+ state, higher = stronger signaling; measurement = fold induction; value = 10.7

Excerpt of the above (block 2):
Oligonucleotide = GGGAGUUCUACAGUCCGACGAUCAGUCCUGUGCUACACAUCGUAUGUACCGAAUCGGGGUUUUGGGUUUUGGGUUUUGGGGAAAGUAUUAUGUUACGCCGUUCGGAUCUGCACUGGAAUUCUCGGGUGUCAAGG; value = -0.642
